Earlier results as cited in several papers.
Each line is one published result; not all experiments were run side by side. ± gives the spread as reported.
DRD3: D(3) dopamine receptor (DRD3, Homo sapiens, UniProt P35462)
Chain of UniProt P35462 (whole entry, looked up): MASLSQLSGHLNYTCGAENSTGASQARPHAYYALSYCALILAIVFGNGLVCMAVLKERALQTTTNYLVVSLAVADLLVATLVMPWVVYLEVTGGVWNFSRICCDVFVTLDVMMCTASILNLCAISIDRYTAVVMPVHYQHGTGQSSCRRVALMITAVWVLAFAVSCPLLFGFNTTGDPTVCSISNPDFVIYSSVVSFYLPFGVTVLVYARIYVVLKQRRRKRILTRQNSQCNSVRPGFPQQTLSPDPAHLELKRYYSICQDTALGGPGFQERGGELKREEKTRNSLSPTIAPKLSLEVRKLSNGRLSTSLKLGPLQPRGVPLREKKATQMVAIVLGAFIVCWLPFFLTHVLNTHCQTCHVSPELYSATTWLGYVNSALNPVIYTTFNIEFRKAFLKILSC
OfChi-h: Chitinase (OfChi-h, Ostrinia furnacalis, UniProt Q4AE59)
Chain of UniProt P21397 (whole entry, looked up): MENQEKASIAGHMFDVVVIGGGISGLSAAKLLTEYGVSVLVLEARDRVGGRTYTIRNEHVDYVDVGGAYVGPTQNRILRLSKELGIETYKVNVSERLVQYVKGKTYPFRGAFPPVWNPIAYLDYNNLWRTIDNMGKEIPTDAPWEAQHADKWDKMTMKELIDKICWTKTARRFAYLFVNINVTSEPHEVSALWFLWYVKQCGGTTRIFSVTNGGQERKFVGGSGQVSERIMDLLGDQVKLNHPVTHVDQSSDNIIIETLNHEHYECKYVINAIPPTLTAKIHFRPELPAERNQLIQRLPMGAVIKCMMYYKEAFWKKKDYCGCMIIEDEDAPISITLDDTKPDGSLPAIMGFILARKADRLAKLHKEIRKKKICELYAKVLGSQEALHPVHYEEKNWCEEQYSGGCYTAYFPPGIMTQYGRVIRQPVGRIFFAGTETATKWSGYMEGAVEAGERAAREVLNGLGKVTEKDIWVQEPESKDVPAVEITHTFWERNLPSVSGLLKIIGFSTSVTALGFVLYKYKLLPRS

Compound	target	assay	system	setting	Ki [nM]
O[C@@H]1Cc2cccc(OCCF)c2C[C@H]1N1CCC(c2ccccc2)CC1	vesicular acetylcholine transporter	binding	PC12 expressing VAChT	–	19.6 ± 1.1
COc1ccccc1N1CCC2(CCN(CCCSc3nnc(-c4ccccc4)n3C)CC2)CC1	DRD3	binding	–	–	12
FC(F)(F)C(F)(F)c1nc(-c2cccnc2)n[nH]1	Plasmodium falciparum formate-nitrite transporter	binding, FCCS	isolated protein	–	1610 ± 298
OCC1OC(n2cnc3c(NCc4ccc(Br)s4)ncnc32)C(O)C1O (stereo not shown)	ENT1 (rat)	binding	PC-12	–	68
CN(C)Cc1ccccc1Sc1ccc(C#N)cc1N	serotonin transporter	–	–	–	1.1
O=C(C=C(O)C(F)(F)C(F)(F)F)c1cccs1	Plasmodium falciparum formate-nitrite transporter	binding, FCCS	isolated protein	–	45 ± 25
O=c1[nH]cnc2c(CNC(CO)COP(=O)(O)O)c[nH]c12 (racemic)	human HGPRT	inhibitor	–	–	> 10000
O=C(C=C(O)C(F)(F)C(F)(F)C(F)(F)F)c1cccnc1	Plasmodium falciparum formate-nitrite transporter	binding, FCCS	isolated protein	–	30 ± 3
Nc1cccc(-c2ccc3c(=O)[nH]c(Nc4ccccc4)cc3c2)c1	CDC25B	reversible competitive inhibitor	–	–	1900
NS(=O)(=O)c1nnc(NC(=O)CN2CCOCC2)s1	Enterococcus faecalis gamma-carbonic anhydrase	enzyme activity, inhibitor	–	–	56.4
CN(C)c1nc(NCc2ccccc2)c(/N=N/c2ccc(Cl)cc2)c(N(C)C)n1	OfChi-h	–	–	–	64.7
O=c1[nH]c(O)nc2c([C@@H]3N[C@H](COP(=O)(O)O)[C@@H](O)[C@H]3O)c[nH]c12	human HGPRT	inhibitor	–	–	> 100000
Cn1c(SCCCN2CCOC(c3ccc(C(F)(F)F)cc3)C2)nnc1-c1ccc(-c2cnco2)cc1 (stereo not shown)	DRD3	binding	–	–	4.9
CCC(=O)Nc1ccc(C(=O)C=C(O)C(F)(F)C(F)(F)F)cn1	Plasmodium falciparum formate-nitrite transporter	binding, FCCS	isolated protein	–	27 ± 4
COc1ccccc1N1CCN(CCCCNC(=O)c2ccc3[nH]c(=O)sc3c2)CC1	DRD3	binding	–	–	0.28
Cn1cc2c3c(c[nH]c(=O)c31)CN(c1ccccn1)c1ccc(CS(C)(=O)=O)cc1-2	BRD4	inhibitor	–	–	13

Compound	target	assay	system	setting	Ki [nM]
Nc1nc2c(CN[C@H](CO)CCP(=O)(O)O)c[nH]c2c(=O)[nH]1	human HGPRT	inhibitor	–	–	20 ± 0.3
Cc1cc2c(c(O)c1O)C(=O)c1c(O)cc(O)cc1C2=O	MAOA (Homo sapiens, UniProt P21397)	–	–	–	3970
CCn1nc(C2CC2)cc1Nc1nc(C(=O)NC)nc2[nH]c3cc(-c4c(C)noc4C)c(OC)cc3c12	Bromodomain-containing protein 4, BD2 (BRD4, Homo sapiens, UniProt O60885)	binding	–	bromodomain 2	1 ± 0.1
Nc1nc2c(CNCCCP(=O)(O)O)c[nH]c2c(=O)[nH]1	human HGPRT	inhibitor	–	–	1000 ± 5
O=C(C=C(O)C(F)(F)C(F)(F)F)c1ccc(NCC2CC2)nc1	Plasmodium falciparum formate-nitrite transporter	binding, FCCS	isolated protein	–	18 ± 3
COc1cc2ncnc(Oc3ccc(N)cc3F)c2cc1OC	WDR5	–	–	–	61000
CC(C)=CCc1c(O)cc2oc3cc(O)c(O)c(CC=C(C)C)c3c(=O)c2c1O	OfChi-h	–	–	–	3900
O=C(Nc1cc(-c2ccncc2)c[nH]c1=O)c1ccccc1	ITK	–	–	–	1300
CCc1c(Cl)cccc1N1CCN(C[C@@H](F)CCNC(=O)c2cc3ccccc3[nH]2)CC1	dopamine D2 receptor	binding	–	–	891 ± 305
O=C(C=C(O)C(F)(F)C(F)(F)F)c1ccc(NCc2ccc(F)cc2)nc1	Plasmodium falciparum formate-nitrite transporter	binding, FCCS	isolated protein	–	16 ± 3
O=c1[nH]cnc2c(CN[C@H](CO)CCP(=O)(O)O)c[nH]c12	human HGPRT	inhibitor	–	–	400 ± 40
CC(=O)Nc1ccc(C(=O)C=C(O)C(F)(F)C(F)(F)F)cn1	Plasmodium falciparum formate-nitrite transporter	binding, FCCS	isolated protein	–	35 ± 8
CON1C(=O)C(=CC=Cc2ccc3c(c2)OCO3)SC1=S	OfChi-h	–	–	–	490
O=C(C=C(O)C(F)(F)C(F)(F)F)c1cccnc1	Plasmodium falciparum formate-nitrite transporter	binding, FCCS	isolated protein	–	35 ± 10
COc1cc2c(cc1NS(=O)(=O)c1cc(Br)ccc1OC)OC(C)(C)C(=O)N2	Bromodomain-containing protein 4, BD1 (BRD4, Homo sapiens, UniProt O60885)	binding	–	bromodomain 1	155

A few entries again:
Compound	target	assay	system	setting	Ki [nM]
O=c1[nH]cnc2c(CNC(CO)COP(=O)(O)O)c[nH]c12 (racemic)	human HGPRT	inhibitor	–	–	> 10000
CC(C)=CCc1c(O)cc2oc3cc(O)c(O)c(CC=C(C)C)c3c(=O)c2c1O	OfChi-h	–	–	–	3900
CCC(=O)Nc1ccc(C(=O)C=C(O)C(F)(F)C(F)(F)F)cn1	Plasmodium falciparum formate-nitrite transporter	binding, FCCS	isolated protein	–	27 ± 4
